Measured values gathered from unrelated publications.
Each line is one published result; not all experiments were run side by side. “And” joins repeats or separate records; there may be more than shown. Numbers after ± are the reported error.
CASP9: Caspase-9 (CASP9, Homo sapiens, UniProt P55211)
UniProt P55211, sequence (whole entry, looked up): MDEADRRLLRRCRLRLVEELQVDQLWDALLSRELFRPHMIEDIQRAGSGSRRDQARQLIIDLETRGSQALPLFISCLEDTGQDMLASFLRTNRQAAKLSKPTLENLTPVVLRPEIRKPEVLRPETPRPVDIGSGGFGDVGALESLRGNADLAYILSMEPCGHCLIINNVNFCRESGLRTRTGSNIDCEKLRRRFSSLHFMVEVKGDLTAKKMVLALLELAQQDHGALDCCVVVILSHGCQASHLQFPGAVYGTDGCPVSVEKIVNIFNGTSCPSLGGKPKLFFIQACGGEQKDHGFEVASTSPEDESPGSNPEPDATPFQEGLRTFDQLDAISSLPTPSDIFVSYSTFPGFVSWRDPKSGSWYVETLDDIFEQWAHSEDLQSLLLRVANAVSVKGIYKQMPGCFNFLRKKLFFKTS
DRD3: D(3) dopamine receptor (DRD3, Homo sapiens, UniProt P35462)
UniProt P35462, sequence (whole entry, looked up): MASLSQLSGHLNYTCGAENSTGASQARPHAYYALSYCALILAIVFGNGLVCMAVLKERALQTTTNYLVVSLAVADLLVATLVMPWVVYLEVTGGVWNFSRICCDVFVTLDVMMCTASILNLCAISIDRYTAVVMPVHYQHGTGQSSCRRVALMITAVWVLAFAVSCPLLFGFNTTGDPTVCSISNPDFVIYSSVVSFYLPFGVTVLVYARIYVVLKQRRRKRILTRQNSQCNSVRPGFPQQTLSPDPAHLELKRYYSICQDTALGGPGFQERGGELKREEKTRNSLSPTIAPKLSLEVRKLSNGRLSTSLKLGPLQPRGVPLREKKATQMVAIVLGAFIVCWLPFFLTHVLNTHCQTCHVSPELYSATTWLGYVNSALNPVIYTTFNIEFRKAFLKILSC
HTR6: 5-hydroxytryptamine receptor 6 (HTR6, Homo sapiens, UniProt P50406)
UniProt P50406, sequence (whole entry, looked up): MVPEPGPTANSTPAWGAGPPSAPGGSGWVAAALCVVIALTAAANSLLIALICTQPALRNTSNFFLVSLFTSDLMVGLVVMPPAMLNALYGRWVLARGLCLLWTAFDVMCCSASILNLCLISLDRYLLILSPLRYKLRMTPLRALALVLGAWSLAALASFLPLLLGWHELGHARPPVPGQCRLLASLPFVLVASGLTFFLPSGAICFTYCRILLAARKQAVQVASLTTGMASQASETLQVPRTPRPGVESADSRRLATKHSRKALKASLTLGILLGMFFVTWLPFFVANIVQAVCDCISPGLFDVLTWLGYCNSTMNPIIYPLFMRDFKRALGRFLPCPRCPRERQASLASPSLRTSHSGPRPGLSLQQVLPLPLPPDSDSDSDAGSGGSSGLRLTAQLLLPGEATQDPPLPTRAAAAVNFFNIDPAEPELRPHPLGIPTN
Uncharacterized protein: Uncharacterized protein (Trypanosoma cruzi, UniProt Q4DRC3)
CHRM2: Muscarinic acetylcholine receptor M2 (CHRM2, Homo sapiens, UniProt P08172)
UniProt P08172, sequence (whole entry, looked up): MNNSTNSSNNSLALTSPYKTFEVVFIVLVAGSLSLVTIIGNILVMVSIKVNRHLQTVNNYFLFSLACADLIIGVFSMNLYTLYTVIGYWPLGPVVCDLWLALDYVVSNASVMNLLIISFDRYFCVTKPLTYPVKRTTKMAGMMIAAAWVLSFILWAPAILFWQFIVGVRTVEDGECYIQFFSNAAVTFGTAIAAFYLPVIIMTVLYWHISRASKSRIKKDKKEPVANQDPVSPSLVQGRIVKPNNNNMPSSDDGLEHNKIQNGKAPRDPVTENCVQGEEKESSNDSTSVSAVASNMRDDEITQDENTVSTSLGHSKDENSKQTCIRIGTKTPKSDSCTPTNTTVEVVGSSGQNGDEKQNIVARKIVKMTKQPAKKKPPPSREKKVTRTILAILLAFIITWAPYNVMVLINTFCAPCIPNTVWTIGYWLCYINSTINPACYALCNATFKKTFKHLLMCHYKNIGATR
KDM1A: Lysine-specific histone demethylase 1A (KDM1A, Homo sapiens, UniProt O60341)
cathepsin L: cathepsin L (Capra hircus, UniProt A0A452FFI6)
UniProt Q9Y345, sequence (whole entry, looked up): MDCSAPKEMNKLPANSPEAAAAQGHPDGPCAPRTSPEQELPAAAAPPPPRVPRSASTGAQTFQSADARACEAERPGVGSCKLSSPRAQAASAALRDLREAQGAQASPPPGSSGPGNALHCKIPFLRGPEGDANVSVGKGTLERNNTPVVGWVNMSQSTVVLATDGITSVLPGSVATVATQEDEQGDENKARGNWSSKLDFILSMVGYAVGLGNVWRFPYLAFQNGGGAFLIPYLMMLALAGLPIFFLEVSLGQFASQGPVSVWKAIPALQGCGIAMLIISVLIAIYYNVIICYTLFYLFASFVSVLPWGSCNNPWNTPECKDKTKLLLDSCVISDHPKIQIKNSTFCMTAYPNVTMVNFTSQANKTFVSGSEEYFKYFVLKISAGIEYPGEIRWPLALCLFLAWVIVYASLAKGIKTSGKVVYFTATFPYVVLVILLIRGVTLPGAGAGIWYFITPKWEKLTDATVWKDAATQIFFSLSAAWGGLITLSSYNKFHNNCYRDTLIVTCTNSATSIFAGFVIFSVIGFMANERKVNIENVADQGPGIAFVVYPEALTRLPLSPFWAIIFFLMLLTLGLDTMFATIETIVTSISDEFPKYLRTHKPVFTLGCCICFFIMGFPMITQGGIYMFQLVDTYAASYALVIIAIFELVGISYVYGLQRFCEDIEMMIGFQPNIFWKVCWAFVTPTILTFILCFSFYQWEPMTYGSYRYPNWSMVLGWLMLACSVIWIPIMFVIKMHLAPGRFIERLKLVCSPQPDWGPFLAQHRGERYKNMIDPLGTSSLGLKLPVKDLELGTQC
UniProt P00915, sequence (whole entry, looked up): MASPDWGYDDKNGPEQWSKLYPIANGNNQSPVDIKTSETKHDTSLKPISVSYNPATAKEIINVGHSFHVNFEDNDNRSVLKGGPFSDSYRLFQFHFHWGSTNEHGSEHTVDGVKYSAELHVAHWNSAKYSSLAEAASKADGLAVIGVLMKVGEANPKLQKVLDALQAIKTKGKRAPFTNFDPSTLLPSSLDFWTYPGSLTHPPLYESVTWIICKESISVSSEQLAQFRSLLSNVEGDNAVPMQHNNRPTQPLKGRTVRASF
UniProt P06239, sequence (whole entry, looked up): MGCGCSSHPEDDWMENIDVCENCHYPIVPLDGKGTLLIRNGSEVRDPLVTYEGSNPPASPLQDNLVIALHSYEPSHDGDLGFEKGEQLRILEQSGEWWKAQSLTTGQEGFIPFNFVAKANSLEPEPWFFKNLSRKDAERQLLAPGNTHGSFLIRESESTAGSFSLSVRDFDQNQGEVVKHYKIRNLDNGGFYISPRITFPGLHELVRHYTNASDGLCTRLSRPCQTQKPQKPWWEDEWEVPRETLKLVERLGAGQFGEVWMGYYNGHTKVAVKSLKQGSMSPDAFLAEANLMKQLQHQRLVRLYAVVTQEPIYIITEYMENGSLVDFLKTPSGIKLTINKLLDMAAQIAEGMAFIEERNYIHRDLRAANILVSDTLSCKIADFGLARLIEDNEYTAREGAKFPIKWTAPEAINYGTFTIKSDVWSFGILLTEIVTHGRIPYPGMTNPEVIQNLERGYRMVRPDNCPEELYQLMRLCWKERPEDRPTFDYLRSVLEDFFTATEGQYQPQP
UniProt P26769, sequence (whole entry, looked up): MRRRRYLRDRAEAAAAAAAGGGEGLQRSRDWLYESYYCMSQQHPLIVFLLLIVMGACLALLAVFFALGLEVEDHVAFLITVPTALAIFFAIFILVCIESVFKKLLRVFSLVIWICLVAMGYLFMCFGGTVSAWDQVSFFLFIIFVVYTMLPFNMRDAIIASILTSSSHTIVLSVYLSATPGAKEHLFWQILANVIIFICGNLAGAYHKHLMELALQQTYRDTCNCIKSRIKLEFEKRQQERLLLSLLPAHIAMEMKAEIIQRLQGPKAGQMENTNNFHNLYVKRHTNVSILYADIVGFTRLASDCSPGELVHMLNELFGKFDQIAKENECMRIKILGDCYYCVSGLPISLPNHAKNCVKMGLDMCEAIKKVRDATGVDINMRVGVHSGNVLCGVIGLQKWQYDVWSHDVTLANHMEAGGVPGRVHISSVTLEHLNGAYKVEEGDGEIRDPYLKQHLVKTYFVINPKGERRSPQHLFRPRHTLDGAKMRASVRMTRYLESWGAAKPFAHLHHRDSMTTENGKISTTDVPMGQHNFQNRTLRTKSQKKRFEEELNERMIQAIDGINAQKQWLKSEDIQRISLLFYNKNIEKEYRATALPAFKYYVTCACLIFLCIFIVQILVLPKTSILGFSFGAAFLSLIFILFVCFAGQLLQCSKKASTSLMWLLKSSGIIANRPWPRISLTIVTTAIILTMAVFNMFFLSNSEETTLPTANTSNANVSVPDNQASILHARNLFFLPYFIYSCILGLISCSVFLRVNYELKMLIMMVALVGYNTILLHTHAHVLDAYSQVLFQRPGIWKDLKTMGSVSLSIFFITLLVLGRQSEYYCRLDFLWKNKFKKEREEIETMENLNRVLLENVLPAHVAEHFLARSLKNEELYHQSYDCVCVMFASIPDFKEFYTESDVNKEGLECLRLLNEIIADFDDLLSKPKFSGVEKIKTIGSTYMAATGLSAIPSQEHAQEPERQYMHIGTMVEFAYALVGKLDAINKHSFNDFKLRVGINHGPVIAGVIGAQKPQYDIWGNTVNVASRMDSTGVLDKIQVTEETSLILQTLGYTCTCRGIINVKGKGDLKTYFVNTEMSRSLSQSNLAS
UniProt P34913, sequence (whole entry, looked up): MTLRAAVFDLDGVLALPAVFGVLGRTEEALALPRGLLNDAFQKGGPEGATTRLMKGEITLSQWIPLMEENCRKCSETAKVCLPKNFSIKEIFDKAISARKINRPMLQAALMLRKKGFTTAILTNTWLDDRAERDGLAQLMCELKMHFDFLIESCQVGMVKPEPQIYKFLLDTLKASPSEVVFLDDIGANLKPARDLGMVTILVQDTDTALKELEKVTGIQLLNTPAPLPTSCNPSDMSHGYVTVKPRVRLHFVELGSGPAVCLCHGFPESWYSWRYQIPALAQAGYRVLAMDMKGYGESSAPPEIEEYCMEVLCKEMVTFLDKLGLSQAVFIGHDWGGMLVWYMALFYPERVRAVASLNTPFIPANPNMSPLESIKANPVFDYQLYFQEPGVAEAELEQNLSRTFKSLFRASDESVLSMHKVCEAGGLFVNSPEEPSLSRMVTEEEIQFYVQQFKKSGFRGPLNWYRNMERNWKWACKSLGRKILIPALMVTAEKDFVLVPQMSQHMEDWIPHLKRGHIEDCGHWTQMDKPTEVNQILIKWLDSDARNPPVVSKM

CC[C@H](C)[C@H](NC(C)=O)C(=O)N[C@H](C(=O)N[C@H](C(=O)N[C@@H](CCCCNC(C)=O)C(=O)N[C@H](C=O)CC(=O)O)C(C)C)[C@@H](C)O
Ki (CASP9; enzyme activity, inhibitor, fluorescence; pH 7): 4.68 µM

N=C(N)NCCCC(=O)NCC1(Nc2ccccc2)CCN(Cc2ccccc2)CC1
Ki (Neuropeptide FF receptor 1 (NPFFR1, Homo sapiens, UniProt Q9GZQ6); cell-free assay): 2.69 µM

CNc1ccccc1C(=O)O[C@H]1[C@@H](O)[C@H](n2ccc(=O)[nH]c2=O)O[C@@H]1COP(=O)(O)OP(=O)(O)O
Ki (Adenylate cyclase type 2 (Adcy2, Rattus norvegicus, UniProt P26769); adenylyl cyclase activity, inhibitor; Sf9 membranes; with: 5 mM MnCl2, 100 µM forskolin): 2.7 ± 0.3 µM

OC[C@@H](CNCc1cn2cc(Cl)ccc2n1)CC1CCCC1
Ki (DRD3; ligand displacement, radioligand; cell membranes): 5.43 µM

OC[C@H](OCc1ccccc1)[C@H](O)C[S@@+]1C[C@@H](O)[C@H](O)[C@H]1CO
Ki (Lysosomal alpha-glucosidase (GAA, Homo sapiens, UniProt P10253); enzyme activity, inhibitor, absorbance; pH 5.2): 0.022 µM

CCn1c2ccccc2c2cc(CNCCCn3ccnc3)ccc21
Ki (DRD3; cell-free assay): 0.685 µM

Cc1cc(OCCCN2CCN(c3cccc4sccc34)CC2)ccc1CN1CCCC1
Ki (HTR6; ligand displacement, radioligand): 0.482 µM

CCCCCCCC[C@@H]1[C@H](O)[C@@H](O)[C@H](O)[C@@H](CO)N1C(=S)NCCCC
Ki (beta-glucosidase (almond); competitive inhibitor; with: p-nitrophenyl glucopyranoside): > 2000 µM

Nc1ncnc2c(CN3C[C@H](CSc4cnccn4)[C@@H](O)C3)c[nH]c12
Ki (MTA/SAH nucleosidase (Campylobacter jejuni subsp. jejuni, UniProt Z9IB28FKP7); slow-onset tight-binding inhibitor; pH 7.4, 25 °C, with: MTA 1 mM): 0.0014 ± 0.0002 µM

O=c1[nH]cnc2c(CN[C@@H](CO)CCP(=O)(O)O)c[nH]c12
Ki (Uncharacterized protein; IMP formation, uncompetitive inhibitor; pH 8.3, 37 °C, with: hypoxanthine 120 µM, PRPP 1 mM): 38 ± 4 µM

CN1CCC=C(c2nsnc2OCCCN2CCN(CCCCC3CCN(CC(=O)N4c5ccccc5NC(=O)c5ccccc54)CC3)CC(N)C2)C1 (stereo not shown)
Ki (CHRM2; ligand displacement, radioligand): 0.000501 µM

Cc1cc(CN2CCOCC2)ccc1OCCCN1CCN(c2cccc3sccc23)CC1
Ki (HTR6; ligand displacement, radioligand): 0.296 µM

COc1ccc(CCCN2CCCNCCCN(CCCCN)CCCNCCC2)cc1
Ki (KDM1A; enzyme activity, inhibitor, absorbance): > 50 µM

CC1=CC[C@@H]2C[C@H]1C2(C)C
Ki (chemosensory protein 5 (Mythimna separata, UniProt A0A5H2NAD7); binding, 1-NPN displacement; pH 7.4): 5.78 µM

CC(=O)N[C@@H](Cc1ccccc1)C(=O)N[C@@H](CC(=O)O)C(=O)N[C@H](C(=O)N1CCC[C@H]1C(=O)N[C@H](C=O)CC(=O)O)C(C)C
Ki (CASP9; enzyme activity, inhibitor, fluorescence; pH 7): 1.05 µM

COc1ccccc1/C=C/C(=N\NC(N)=O)c1ccccc1
Ki (cathepsin L; enzyme activity, competitive inhibitor; goat liver enzyme; pH 6.0, with: Z-Phe-Arg-4-methoxy-β-naphthylamide): 0.00031 ± 5e-06 µM

CCCCCCCC[C@@H]1[C@H](O)[C@@H](O)[C@H](O)[C@H]2CS/C(=N/CCCC)N12
Ki (beta-glucosidase (almond); competitive inhibitor; with: p-nitrophenyl glucopyranoside): > 2000 µM

O=C(NCCc1ccc(O)cc1)C1=Cc2cc(O)c(O)cc2[C@H](c2ccc(O)c(O)c2)[C@H]1C(=O)NCCc1ccc(O)cc1
Ki (Bifunctional epoxide hydrolase 2 (EPHX2, Homo sapiens, UniProt P34913); enzyme activity, inhibitor): 9.9 µM

NCc1cc(C(=O)NCCN2CCN(CCCCC3CCN(CC(=O)N4c5ccccc5NC(=O)c5ccccc54)CC3)CC2)cc(C(=O)NCCN2CCN(CCOC(=O)C3c4ccccc4Oc4ccccc43)CC2)c1
Ki (CHRM2; ligand displacement, radioligand): 0.000676 µM

COc1ccc(CCCN[C@@H]2CCC[C@H]2CN[C@@H]2CCC[C@H]2CNCCCCN[C@@H]2CCC[C@H]2CN)cc1
Ki (KDM1A; enzyme activity, inhibitor, absorbance): 6.3 µM

CN1CCC=C(c2nsnc2OCCCCCNC(=O)CCCCCCCCC(=O)NCCCCCOc2nsnc2C2=CCCN(C)C2)C1
Ki (CHRM2; ligand displacement, radioligand): 0.00214 µM

C=CCSSC
Ki (uncharacterized protein (Bradysia odoriphaga, UniProt A0A2S0X9G4); binding, competitive fluorescence displacement): < 10 µM and 7 µM

CCCCCCOc1ccc(C(=O)OCC[N+]2(C)CC=CCC2)cc1 (stereo not shown)
Ki (muscarinic receptors M1-M5, human; binding; with: [3H]-NMS 1 nM): ~0.3 µM

CNC(=O)C1CCN(c2cc(C)c(F)cc2NC(=O)c2ccc(-c3cc(O)ccc3C)c(C)c2)CC1
Ki (Tyrosine-protein kinase Lck (LCK, Homo sapiens, UniProt P06239); cell-free assay, TR-FRET): 0.0106 µM

O=c1[nH]cnc2c(CNCC(O)CP(=O)(O)O)c[nH]c12 (racemic)
Ki (Uncharacterized protein; IMP formation, uncompetitive inhibitor; pH 8.3, 37 °C, with: hypoxanthine 120 µM, PRPP 1 mM): 11 ± 1 µM

NC(=O)N/N=C(/C=C/c1cccc(Cl)c1)c1ccccc1
Ki (cathepsin L; enzyme activity, competitive inhibitor; goat liver enzyme; pH 6.0, with: Z-Phe-Arg-4-methoxy-β-naphthylamide): 0.00242 ± 1e-05 µM

COc1ccccc1C1(O)CCN(CCCCCC2=C3C(C)=CC(C)=[N+]3[B-](F)(F)n3c(C)cc(C)c32)CC1
Ki (Sodium- and chloride-dependent glycine transporter 2 (Homo sapiens, UniProt Q9Y345); cell-free assay, mass spectrometry): 3.8 µM

COc1cccc(/C(C)=N/NC(=O)CSc2nc3ccccc3c(=O)n2CCc2ccc(S(N)(=O)=O)cc2)c1
Ki (Carbonic anhydrase 1 (CA1, Homo sapiens, UniProt P00915); enzyme activity, inhibitor, stopped-flow): 1.63 µM

CN1CCC=C(c2nsnc2OCCCCCN2CCN(CCCCCOc3nsnc3C3=CCCN(C)C3)CC2)C1
Ki (CHRM2; ligand displacement, radioligand): 0.0178 µM

O=C(NCc1ccc(OP(=O)(O)O)c(OP(=O)(O)O)c1)OCC1c2ccccc2-c2ccccc21
Ki (Signal transducer and activator of transcription 5B, SH2 (STAT5B, Homo sapiens, UniProt P51692); ligand displacement, FP): 0.21 µM

CCCCCCCC[C@H]1N[C@H](CO)[C@@H](O)[C@H](O)[C@H]1O
Ki (beta-glucosidase (almond); competitive inhibitor; with: p-nitrophenyl glucopyranoside): 28 ± 2 µM

For quick reference, copied from above:
NC(=O)N/N=C(/C=C/c1cccc(Cl)c1)c1ccccc1
Ki (cathepsin L; enzyme activity, competitive inhibitor; goat liver enzyme; pH 6.0, with: Z-Phe-Arg-4-methoxy-β-naphthylamide): 0.00242 ± 1e-05 µM

COc1ccccc1C1(O)CCN(CCCCCC2=C3C(C)=CC(C)=[N+]3[B-](F)(F)n3c(C)cc(C)c32)CC1
Ki (Sodium- and chloride-dependent glycine transporter 2 (Homo sapiens, UniProt Q9Y345); cell-free assay, mass spectrometry): 3.8 µM

COc1cccc(/C(C)=N/NC(=O)CSc2nc3ccccc3c(=O)n2CCc2ccc(S(N)(=O)=O)cc2)c1
Ki (Carbonic anhydrase 1 (CA1, Homo sapiens, UniProt P00915); enzyme activity, inhibitor, stopped-flow): 1.63 µM

CN1CCC=C(c2nsnc2OCCCCCN2CCN(CCCCCOc3nsnc3C3=CCCN(C)C3)CC2)C1
Ki (CHRM2; ligand displacement, radioligand): 0.0178 µM
